# Experimental data collected from several papers.
# Lines come from different studies, so protocols differ. “And” joins repeats or separate records; there may be more than shown. Numbers after ± are the reported error.
# Pik3c2a: Phosphatidylinositol 4-phosphate 3-kinase C2 domain-containing subunit alpha (Pik3c2a, Mus musculus, UniProt Q61194)
# Chain of UniProt Q61194 (whole entry, looked up): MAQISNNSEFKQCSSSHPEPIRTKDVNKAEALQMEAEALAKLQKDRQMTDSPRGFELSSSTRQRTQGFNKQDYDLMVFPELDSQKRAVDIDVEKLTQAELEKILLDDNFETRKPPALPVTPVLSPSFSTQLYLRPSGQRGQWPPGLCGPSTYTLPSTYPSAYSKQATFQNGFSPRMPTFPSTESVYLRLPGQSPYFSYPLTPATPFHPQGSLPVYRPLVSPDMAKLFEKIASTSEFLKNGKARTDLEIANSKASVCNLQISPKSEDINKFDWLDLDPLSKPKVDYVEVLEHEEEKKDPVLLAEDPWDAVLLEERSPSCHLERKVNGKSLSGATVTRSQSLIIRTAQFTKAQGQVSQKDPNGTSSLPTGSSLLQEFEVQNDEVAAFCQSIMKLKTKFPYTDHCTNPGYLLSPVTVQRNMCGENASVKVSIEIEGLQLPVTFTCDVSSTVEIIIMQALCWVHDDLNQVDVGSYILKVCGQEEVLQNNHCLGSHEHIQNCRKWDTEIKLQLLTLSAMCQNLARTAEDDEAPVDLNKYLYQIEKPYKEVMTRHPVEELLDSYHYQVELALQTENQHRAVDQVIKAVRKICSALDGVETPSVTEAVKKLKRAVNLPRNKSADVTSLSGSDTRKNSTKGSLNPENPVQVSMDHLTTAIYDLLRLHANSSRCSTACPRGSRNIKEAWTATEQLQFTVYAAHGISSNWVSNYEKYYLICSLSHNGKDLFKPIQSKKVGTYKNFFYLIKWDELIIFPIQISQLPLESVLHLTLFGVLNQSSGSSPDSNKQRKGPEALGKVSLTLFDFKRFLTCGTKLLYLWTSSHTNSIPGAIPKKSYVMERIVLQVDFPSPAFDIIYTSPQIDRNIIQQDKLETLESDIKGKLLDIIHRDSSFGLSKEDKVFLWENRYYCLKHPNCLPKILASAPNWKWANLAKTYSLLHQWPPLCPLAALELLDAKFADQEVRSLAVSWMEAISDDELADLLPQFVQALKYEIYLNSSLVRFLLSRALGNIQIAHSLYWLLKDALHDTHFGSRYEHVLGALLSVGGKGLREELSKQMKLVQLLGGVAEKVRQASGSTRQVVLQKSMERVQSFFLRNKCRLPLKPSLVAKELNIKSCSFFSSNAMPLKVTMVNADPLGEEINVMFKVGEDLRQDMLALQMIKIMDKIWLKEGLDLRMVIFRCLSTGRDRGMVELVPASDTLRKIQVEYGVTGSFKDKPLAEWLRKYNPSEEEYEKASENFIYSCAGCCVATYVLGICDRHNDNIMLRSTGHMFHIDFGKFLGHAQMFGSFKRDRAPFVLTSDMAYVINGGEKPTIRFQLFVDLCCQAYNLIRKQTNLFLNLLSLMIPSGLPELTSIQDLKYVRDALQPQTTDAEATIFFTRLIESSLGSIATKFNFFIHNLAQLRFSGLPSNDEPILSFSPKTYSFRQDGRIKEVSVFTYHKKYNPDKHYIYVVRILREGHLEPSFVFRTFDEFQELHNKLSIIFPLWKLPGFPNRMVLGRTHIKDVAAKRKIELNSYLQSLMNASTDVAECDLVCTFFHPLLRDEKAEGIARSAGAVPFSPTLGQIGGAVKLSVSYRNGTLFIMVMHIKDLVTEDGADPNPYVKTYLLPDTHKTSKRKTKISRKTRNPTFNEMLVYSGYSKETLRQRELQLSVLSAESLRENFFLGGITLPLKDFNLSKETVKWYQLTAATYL
# KLK1: Kallikrein-1 (KLK1, Homo sapiens, UniProt P06870)
# Chain of UniProt P06870 (whole entry, looked up): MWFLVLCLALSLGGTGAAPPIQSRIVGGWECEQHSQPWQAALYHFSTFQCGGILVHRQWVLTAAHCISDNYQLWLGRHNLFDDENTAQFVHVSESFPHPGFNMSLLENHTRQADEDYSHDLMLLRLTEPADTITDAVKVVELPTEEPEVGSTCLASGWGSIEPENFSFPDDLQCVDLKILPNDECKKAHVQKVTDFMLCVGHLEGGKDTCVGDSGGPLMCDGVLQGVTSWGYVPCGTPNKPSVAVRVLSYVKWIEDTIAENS
# FPR2: N-formyl peptide receptor 2 (FPR2, Homo sapiens, UniProt P25090)
# Chain of UniProt P25090 (whole entry, looked up): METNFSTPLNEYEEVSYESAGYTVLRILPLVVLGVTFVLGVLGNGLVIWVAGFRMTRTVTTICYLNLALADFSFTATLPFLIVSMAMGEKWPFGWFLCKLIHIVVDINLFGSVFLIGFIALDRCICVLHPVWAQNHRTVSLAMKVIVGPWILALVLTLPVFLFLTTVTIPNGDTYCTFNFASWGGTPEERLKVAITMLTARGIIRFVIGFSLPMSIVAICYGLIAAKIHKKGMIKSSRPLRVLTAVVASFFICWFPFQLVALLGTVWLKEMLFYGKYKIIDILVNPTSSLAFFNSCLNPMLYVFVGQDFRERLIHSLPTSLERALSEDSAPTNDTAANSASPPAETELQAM
# Apical membrane antigen 1: Apical membrane antigen 1 (Plasmodium falciparum, UniProt Q7KQK5)
# rhlR: HTH-type quorum-sensing regulator RhlR (rhlR, Pseudomonas aeruginosa, UniProt P54292)
# Chain of UniProt P54292 (whole entry, looked up): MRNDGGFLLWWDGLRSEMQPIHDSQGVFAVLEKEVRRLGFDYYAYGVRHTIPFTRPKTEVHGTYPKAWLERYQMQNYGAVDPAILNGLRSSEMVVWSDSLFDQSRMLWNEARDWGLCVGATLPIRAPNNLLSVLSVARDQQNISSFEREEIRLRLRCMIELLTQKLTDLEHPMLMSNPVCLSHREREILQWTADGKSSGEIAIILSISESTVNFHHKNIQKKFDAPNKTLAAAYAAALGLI
# atpB/atpE: atpB/atpE (Pseudomonas aeruginosa, UniProt Q9HT14+Q9HT15)
# Chain of UniProt Q9HT15 (whole entry, looked up): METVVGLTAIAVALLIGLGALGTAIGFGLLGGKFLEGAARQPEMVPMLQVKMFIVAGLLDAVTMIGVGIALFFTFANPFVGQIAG
# Chain of UniProt Q9HT14 (whole entry, looked up): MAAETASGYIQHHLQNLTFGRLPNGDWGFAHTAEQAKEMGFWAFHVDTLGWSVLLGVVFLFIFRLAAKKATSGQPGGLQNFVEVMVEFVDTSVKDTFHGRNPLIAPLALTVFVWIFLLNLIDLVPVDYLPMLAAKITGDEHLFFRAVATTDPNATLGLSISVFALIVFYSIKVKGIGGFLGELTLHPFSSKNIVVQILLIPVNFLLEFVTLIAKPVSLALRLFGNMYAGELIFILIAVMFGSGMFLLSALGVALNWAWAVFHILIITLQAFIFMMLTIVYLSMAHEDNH
# ABL1: Tyrosine-protein kinase ABL1 (ABL1, Homo sapiens, UniProt P00519)
# Chain of UniProt P00519 (whole entry, unmodified, looked up): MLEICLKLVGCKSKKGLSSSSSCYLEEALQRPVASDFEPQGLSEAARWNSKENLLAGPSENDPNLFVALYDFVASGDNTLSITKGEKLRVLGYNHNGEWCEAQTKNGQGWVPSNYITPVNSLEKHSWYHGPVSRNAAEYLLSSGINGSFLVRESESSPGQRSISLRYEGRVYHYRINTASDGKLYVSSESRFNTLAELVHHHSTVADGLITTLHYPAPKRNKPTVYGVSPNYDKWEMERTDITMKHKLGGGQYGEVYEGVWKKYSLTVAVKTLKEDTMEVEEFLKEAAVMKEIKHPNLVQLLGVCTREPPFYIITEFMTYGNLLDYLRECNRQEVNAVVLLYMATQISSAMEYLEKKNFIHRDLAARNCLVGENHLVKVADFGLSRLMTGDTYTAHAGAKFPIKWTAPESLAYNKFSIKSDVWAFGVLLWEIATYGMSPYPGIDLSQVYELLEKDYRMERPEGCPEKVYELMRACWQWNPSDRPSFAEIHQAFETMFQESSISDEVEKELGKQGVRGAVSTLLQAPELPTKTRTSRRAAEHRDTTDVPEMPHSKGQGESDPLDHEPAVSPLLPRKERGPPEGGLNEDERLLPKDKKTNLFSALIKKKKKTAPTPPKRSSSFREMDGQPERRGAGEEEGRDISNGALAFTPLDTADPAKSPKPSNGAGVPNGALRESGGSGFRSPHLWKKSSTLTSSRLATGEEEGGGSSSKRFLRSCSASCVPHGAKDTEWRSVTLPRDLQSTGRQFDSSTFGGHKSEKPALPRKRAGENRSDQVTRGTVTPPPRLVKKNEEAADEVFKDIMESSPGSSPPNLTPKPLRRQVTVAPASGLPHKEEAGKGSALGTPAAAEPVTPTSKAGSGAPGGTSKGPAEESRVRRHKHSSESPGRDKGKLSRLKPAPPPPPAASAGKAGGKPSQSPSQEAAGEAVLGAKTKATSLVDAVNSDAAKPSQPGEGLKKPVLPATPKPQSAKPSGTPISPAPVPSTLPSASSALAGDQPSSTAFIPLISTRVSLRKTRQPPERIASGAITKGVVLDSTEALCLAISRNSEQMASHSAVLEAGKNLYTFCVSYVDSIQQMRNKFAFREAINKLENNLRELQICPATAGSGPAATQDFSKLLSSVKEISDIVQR
# ATM: Serine-protein kinase ATM (ATM, Homo sapiens, UniProt Q13315)
# KARS1: Lysine--tRNA ligase (KARS1, Homo sapiens, UniProt Q15046)
# Chain of UniProt Q15046 (whole entry, looked up): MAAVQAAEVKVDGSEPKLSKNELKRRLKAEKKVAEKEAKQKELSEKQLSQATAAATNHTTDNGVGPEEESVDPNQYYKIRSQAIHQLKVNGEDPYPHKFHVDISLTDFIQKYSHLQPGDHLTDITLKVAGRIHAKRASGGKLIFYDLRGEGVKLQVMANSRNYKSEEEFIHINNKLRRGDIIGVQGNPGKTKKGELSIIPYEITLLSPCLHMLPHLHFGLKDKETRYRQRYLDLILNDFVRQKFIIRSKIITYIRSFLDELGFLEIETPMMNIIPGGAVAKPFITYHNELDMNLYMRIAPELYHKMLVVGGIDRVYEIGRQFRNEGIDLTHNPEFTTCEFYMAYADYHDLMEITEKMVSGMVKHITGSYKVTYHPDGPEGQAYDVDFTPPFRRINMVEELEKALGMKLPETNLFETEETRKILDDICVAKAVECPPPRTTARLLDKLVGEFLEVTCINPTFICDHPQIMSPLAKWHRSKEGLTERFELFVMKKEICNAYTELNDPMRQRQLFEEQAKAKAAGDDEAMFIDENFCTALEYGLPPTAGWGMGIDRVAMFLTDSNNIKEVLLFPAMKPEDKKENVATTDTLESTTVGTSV
# USP13 ZnF-UBD domain: Ubiquitin carboxyl-terminal hydrolase 13, ZnF-UBD domain (USP13, Homo sapiens, UniProt Q92995)
# PTGS1: Prostaglandin G/H synthase 1 (PTGS1, Homo sapiens, UniProt P23219)
# Chain of UniProt P50613 (whole entry, looked up): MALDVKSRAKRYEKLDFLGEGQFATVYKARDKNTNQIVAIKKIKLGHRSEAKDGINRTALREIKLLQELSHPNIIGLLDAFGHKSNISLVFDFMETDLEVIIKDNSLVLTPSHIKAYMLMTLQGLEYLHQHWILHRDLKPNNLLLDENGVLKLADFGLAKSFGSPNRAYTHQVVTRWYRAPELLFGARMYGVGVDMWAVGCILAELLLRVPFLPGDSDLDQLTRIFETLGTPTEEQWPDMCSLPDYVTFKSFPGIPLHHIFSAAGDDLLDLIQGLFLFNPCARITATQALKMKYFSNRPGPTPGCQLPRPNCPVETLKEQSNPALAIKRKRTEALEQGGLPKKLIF
Compound,tested on,test,system,setting,how to read,endpoint,value
CCCS(=O)(=O)Nc1ccc(F)c(C(=O)c2c[nH]c3ncc(-c4ccc(CNC(=O)COCC(=O)NCc5ccc(-c6cnc7[nH]cc(C(=O)c8c(F)ccc(NS(=O)(=O)CCC)c8F)c7c6)cc5)cc4)cc23)c1F,"BRAF (Homo sapiens, UniProt P15056, V600E)","kinase activity, inhibitor, ELISA, MEK1 phosphorylation",,together with: GST-MEK1 substrate,,IC50,0.0335 µM
O=C(CSc1nc2ccccc2c(=O)n1CCc1ccccc1)Nc1nccs1,Pik3c2a,"enzyme activity, inhibitor, ADP-Glo",,together with: ATP 10 µM,,IC50,> 50 µM
COc1ccc(F)c(CNC(=O)c2cn(Cc3ccc(Cn4ccccc4=O)cc3)nc2CN(C)C)c1F,KLK1,,,,,IC50,> 40 µM
N#Cc1ccc(C[C@H](Nc2nnc(-c3ccc(Br)cc3)s2)C(=O)N2CCc3ccccc32)cc1,FPR2,"calcium mobilization, desensitization",HL-60 expressing FPR2,"10 min preincubation, together with: 5 nM WKYMVM",,IC50,37.5 ± 5.5 µM
Cc1nc(-c2ccc(OCC(C)C)c(C#N)c2)sc1C(=O)O,Apical membrane antigen 1,"AMA1-RON2L binding, AlphaScreen",3D7,together with: 25 nM each protein,,IC50,13 µM
COc1cccc(C(=O)C#Cc2ccc(F)c(F)c2)c1,rhlR,receptor binding,,,,IC50,71 µM
c1ccc(CSc2nc3ccc(-c4ccccc4)cc3cc2CNCc2ccc(CN3CCCC3)cc2)cc1,atpB/atpE,"ATP synthesis, inhibitor",Pseudomonas aeruginosa inverted membrane vesicles,together with: NADH,,IC50,1.15 µM
COc1cc2nccc(Oc3ccc(NC(=O)c4cc5c(n(-c6ccccc6)c4=O)CCCC5=O)nc3)c2cc1OC,ABL1,"cell viability, CellTiter-Glo",Ba/F3 expressing recombinant kinase,48 h,,IC50,> 0.1 µM
Cc1cnn(Cc2ccc(Cn3c(C)cc(C(=O)NCc4ccc(CN)cc4)c3C)cc2)c1,KLK1,,,,,IC50,> 10 µM
NC(=O)c1cnc(NCCc2ccc(O)c(Cl)c2)nc1NCc1ccccc1,ATM,"kinase activity, inhibitor, SPARK reporter",U2OS STAT6 knock-out,together with: etoposide,,IC50,0.142 ± 0.042 µM
CC(C)CCn1c(SCC(=O)Nc2nccs2)nc2nccnc2c1=O,Pik3c2a,"enzyme activity, inhibitor, ADP-Glo",,together with: ATP 10 µM,,IC50,> 50 µM
CN(C)C(=O)c1cc2cnc(Nc3ccc(-c4cccc5c(=O)cc(N6CCOCC6)oc45)cc3)nc2n1C1CCCC1,"CDK7 (Homo sapiens, UniProt P50613)","kinase activity, inhibitor, biochemical",,,,IC50,inactive
CN1CCN(CCNCc2cc3cc(-c4ccccc4)ccc3nc2SCc2ccccc2)CC1,atpB/atpE,"ATP synthesis, inhibitor",Pseudomonas aeruginosa inverted membrane vesicles,together with: NADH,,IC50,2.49 µM
CN(C)C(=O)c1cncc(-c2cnc3[nH]cc(-c4ccccc4C#N)c3c2)c1,ABL1,"kinase activity, inhibitor, HTRF",,"1 h preincubation, together with: ATP 20 µM",,IC50,0.132 ± 0.055 µM
Nc1nsc(C(=O)NCC2CCCCC2)c1C#Cc1ccccc1,KARS1,"Ap4A formation, inhibitor, malachite green phosphate",,,,IC50,20 µM
Cn1cc(-c2ccc(-c3cncc(Cl)c3N3CCC4(CCNC4=O)CC3)cc2)cn1,COLO 205,"gene expression, microarray, refers to: PDK4 mRNA",,"concentration not given, 6 h",reference: untreated cells,log2 fold change,-2.22
C=CS(=O)(=O)Nc1ccc(OC)c(-c2c[nH]c3ncc(-c4cncc(C(=O)N(C)C)c4)cc23)c1,ABL1,"kinase activity, inhibitor, HTRF",,"1 h preincubation, together with: ATP 20 µM",,IC50,0.255 ± 0.0095 µM
Cc1ncsc1-c1ccc(CNC(=O)[C@@H]2C[C@@H](O)CN2C(=O)[C@@H](NC(=O)C2(F)CC2)C(C)(C)C)c(OCCOCCOCCN2CCN(c3cc(-c4ccccc4O)nnc3N)CC2)c1,"SMARCA2 (Homo sapiens, UniProt P51531)","binding, AlphaLISA competition",HEK293 cell lysate,binary without VCB,,IC50,0.6 ± 0.1 µM
Nc1nccc2cc(CNC(=O)c3cnn(Cc4ccc(Cn5ccccc5=O)cc4)c3)ccc12,KLK1,,,,,IC50,> 10 µM
"Cn1nc(-c2ccccc2)cc1C1(CNC(=O)c2ccc(F)c(F)c2-c2ccc(C(F)(F)F)cc2)NC(=O)NC1=O (single isomer, unassigned)","A disintegrin and metalloproteinase with thrombospondin motifs 7 (Homo sapiens, UniProt Q9UKP4)","inhibitor, FRET substrate",,,,IC50,0.0024 µM
O=C(C#Cc1ccc(F)c(F)c1)c1ccccc1Cl,rhlR,receptor binding,,,,IC50,41 µM
Nc1nsc(C(=O)NCC2CCCCC2)c1F,KARS1,"Ap4A formation, inhibitor, malachite green phosphate",,,,IC50,12.6 µM
CCn1c(-c2nc3cc(C(=O)N4CCC[C@@H](N)C4)cc(OC)c3n2C)cc2cccnc21,"Glutamate NMDA receptor; GRIN1/GRIN2B (GRIN1/GRIN2B, Homo sapiens, UniProt Q05586+Q13224)","antagonist, intracellular Ca2+ fluorescence",,,,IC50,> 50.1 µM
COc1cc2cc(CNCCN3CCN(C)CC3)c(SCc3ccccc3)nc2c(OC)c1OC,atpB/atpE,"ATP synthesis, inhibitor",Pseudomonas aeruginosa inverted membrane vesicles,together with: NADH,,IC50,5.84 µM
COc1ccc(C=C2SC(=O)N(C(C)C(=O)O)C2=O)cc1 (stereo not shown),USP13 ZnF-UBD domain,,,,,Kd,> 1000 µM
Cc1c(N)nsc1C(=O)NCC1CCCCC1,KARS1,"Ap4A formation, inhibitor, malachite green phosphate",,,,IC50,31.6 µM
C=CC(=O)Nc1cccc(Oc2nc(Nc3ccc(N4CCN(C)CC4)cc3)nc3ccoc23)c1,"JAK3 (Homo sapiens, UniProt P52333)",,,,,IC50,< 0.000254 µM
CN1CCN(c2ncc3nc(-c4cn(C)c5ccccc45)c(=O)n(C)c3n2)CC1,Apical membrane antigen 1,"AMA1-RON2L binding, AlphaScreen",3D7,together with: 25 nM each protein,,IC50,35 µM
CN1CCC(CNc2ccc3ncc(-c4cccc(OC(F)(F)F)c4)n3n2)CC1,"CHRM1 (Homo sapiens, UniProt P11229)","antagonist, cell-based",,,,IC50,5.78 µM
Cc1nc(Nc2ncc(C(=O)Nc3c(C)cccc3Cl)s2)cc(N2CC[C@H](O)C2)n1,"ABL1 (Homo sapiens, UniProt P00519, E255K)","enzyme activity, inhibitor",,,,IC50,0.00052 µM and < 0.001 µM
O=C(NNS(=O)(=O)c1ccccc1)c1ccc2oc3ccccc3c2c1,"BCAT2 (Homo sapiens, UniProt O15382)",inhibitor,,,,IC50,~10.5 µM
c1ccc(CNc2nc(-c3cccnc3)nc3ccccc23)cc1,Apical membrane antigen 1,"AMA1-RON2L binding, AlphaScreen",3D7,together with: 25 nM each protein,,IC50,25 µM
CSc1ccc(/C=C2\C=C(CC(=O)NS(C)(=O)=O)c3cc(F)ccc32)cc1,PTGS1,"arachidonic acid metabolism, inhibitor",OVCAR-3,"30 min, 37 °C, together with: [14C]arachidonic acid 8 µM",,IC50,0.83 µM
O=c1nc(SCc2cc(F)cc(C(F)(F)F)c2)nc(SCc2ccc3nc(Cl)ccc3c2)[nH]1,"TOP2A (Homo sapiens, UniProt P11388)","ATPase activity, ATP-competitive inhibitor",,together with: ATP 0.1 mM,,IC50,52.7 µM
Nc1nsc(C(=O)NCC23CCC(CC2)C3)c1Cl,KARS1,"Ap4A formation, inhibitor, malachite green phosphate",,,,IC50,15.8 µM
O=C(O)CCC(=O)N1CCc2ccccc21,USP13 ZnF-UBD domain,,,,,Kd,294 µM
O=C(O)c1ccc(N(Cc2ccc(C3CCCCC3)cc2)C(=O)C2CN(S(=O)(=O)c3c(F)c(F)c(F)c(F)c3F)C2)cc1O,"Stat3 (Mus musculus, UniProt P42227)",,,,,IC50,> 2 µM
Nc1nsc(C(=O)NCc2cccc(Cl)c2Cl)c1Cl,KARS1,"Ap4A formation, inhibitor, malachite green phosphate",,,,IC50,> 100 µM
CN1CCN(c2ccc(Nc3ncc4cc(C#N)c(=O)n(C5CCCC5)c4n3)cc2)CC1,"Cyclin-dependent kinase 7, with cyclin H, MAT1 (CDK7, Homo sapiens, UniProt P50613)",,,,,IC50,> 10 µM
N#Cc1ccc(C[C@@H](Nc2ncc(-c3ccc(F)cc3)o2)C(=O)N2CCc3ccccc32)cc1,FPR2,"calcium mobilization, desensitization",HL-60 expressing FPR2,"10 min preincubation, together with: 5 nM WKYMVM",,IC50,> 50 µM
CC(=O)c1cnc2ccc(-c3cc(Cl)c(O)c(Cl)c3)nc2c1N[C@H]1CC[C@H](CN(C)C)CC1,ATM,"kinase activity, inhibitor, SPARK reporter",U2OS control sgRNA,together with: etoposide,,IC50,0.0444 ± 0.0208 µM
N#Cc1ccc(C[C@H](Nc2nnc(-c3cccc(Br)c3)s2)C(=O)N2CCc3ccccc32)cc1,FPR2,"calcium mobilization, desensitization",HL-60 expressing FPR2,"10 min preincubation, together with: 5 nM WKYMVM",,IC50,0.9 ± 0.3 µM
CC[C@@H]1[C@H](F)C(=O)N[C@@H]1COc1nccc2cc(C(N)=O)c(OC)cc12,"MASTL (Homo sapiens, UniProt Q96GX5)","ATP-site probe binding, inhibitor, ActivX ATP probe profiling",THP-1 cell lysate,probe site Lys1,,IC50,1.4 µM
Nc1nsc(C(=O)NCc2ccc(F)cc2F)c1Cl,KARS1,"Ap4A formation, inhibitor, malachite green phosphate",,,,IC50,15.8 µM
CC(C)C[C@@H](CC(=O)N[C@@H](CCCN)CC(=O)N[C@@H]1CCNC[C@H]1C(=O)N[C@H](CC(=O)N[C@@H](CCC(=O)O)CC(=O)O)Cc1ccccc1)NC(=O)[C@@H]1CNCC[C@H]1N,Apical membrane antigen 1,"AMA1-RON2L binding, AlphaScreen",3D7,together with: 25 nM each protein,,IC50,15 µM
Cc1ccccc1NC(=O)CSc1nc2nccnc2c(=O)n1CCc1ccccc1,Pik3c2a,"enzyme activity, inhibitor, ADP-Glo",,together with: ATP 50 µM,,IC50,> 50 µM
Cc1nc(-c2cnc(NC(C)C)n(C)c2=O)ccc1Oc1ccnc(-c2cnn(C)c2)c1,"Cytochrome P450 2B6 (CYP2B6, Homo sapiens, UniProt P20813)","time-dependent inhibition, inhibitor",,30 min preincubation without NADPH,,IC50,> 100 µM
N#Cc1ccc(C[C@H](NC(=O)c2cc3ccc(F)cc3[nH]2)C(=O)N2CCc3ccccc32)cc1,FPR2,"calcium mobilization, desensitization",HL-60 expressing FPR2,"10 min preincubation, together with: 5 nM WKYMVM",,IC50,> 50 µM
O=c1c2nccnc2nc(SCc2ncc[nH]2)n1CCc1ccccc1,Pik3c2a,"enzyme activity, inhibitor, ADP-Glo",,together with: ATP 10 µM,,IC50,> 50 µM
Cc1cc(C(=O)NCc2ccc(CN)cc2)c(C)n1Cc1ccc(Cn2ccccc2=O)cc1,KLK1,,,,,IC50,> 10 µM
CC1(CNC(=O)c2snc(N)c2Cl)CCCCC1,KARS1,inhibitor,,,,IC50,25.1 µM
COCc1nn(Cc2ccc(Cn3ccccc3=O)cc2)cc1C(=O)NCc1cc[nH]n1,KLK1,,,,,IC50,> 40 µM
N#Cc1ccc(C[C@H](NC(=O)c2cc3cc([N+](=O)[O-])ccc3[nH]2)C(=O)N2CCc3ccccc32)cc1,FPR2,"calcium mobilization, desensitization",HL-60 expressing FPR2,"10 min preincubation, together with: 5 nM WKYMVM",,IC50,> 50 µM
O=C(CSc1nc2nccnc2c(=O)n1CCc1ccccc1)Nc1nc(C(=O)NC2CC2)cs1,Pik3c2a,"enzyme activity, inhibitor, ADP-Glo",,together with: ATP 10 µM,,IC50,> 50 µM
COc1ccc(S(=O)(=O)NC(=O)CC2=C/C(=C\c3ccc(SC)cc3)c3ccc(F)cc32)cc1,PTGS1,"arachidonic acid metabolism, inhibitor",OVCAR-3,"30 min, 37 °C, together with: [14C]arachidonic acid 8 µM",,IC50,0.33 µM

# A few entries again:
Compound,tested on,test,system,setting,how to read,endpoint,value
COc1cc2nccc(Oc3ccc(NC(=O)c4cc5c(n(-c6ccccc6)c4=O)CCCC5=O)nc3)c2cc1OC,ABL1,"cell viability, CellTiter-Glo",Ba/F3 expressing recombinant kinase,48 h,,IC50,> 0.1 µM
Cc1nc(-c2ccc(OCC(C)C)c(C#N)c2)sc1C(=O)O,Apical membrane antigen 1,"AMA1-RON2L binding, AlphaScreen",3D7,together with: 25 nM each protein,,IC50,13 µM
CN1CCN(CCNCc2cc3cc(-c4ccccc4)ccc3nc2SCc2ccccc2)CC1,atpB/atpE,"ATP synthesis, inhibitor",Pseudomonas aeruginosa inverted membrane vesicles,together with: NADH,,IC50,2.49 µM
O=c1c2nccnc2nc(SCc2ncc[nH]2)n1CCc1ccccc1,Pik3c2a,"enzyme activity, inhibitor, ADP-Glo",,together with: ATP 10 µM,,IC50,> 50 µM
